Experimental data of several laboratories.
Technique: steady-state kinetics
B1: asnB E349D (Escherichia coli, UniProt P22106); chain CSIFGVFDIKTDAVELRKKALELSRLMRHRGPDWSGIYASDNAILAHERLSIVDVNAGAQPLYNQQKTHVLAVNGEIYNHQALRAEYGDRYQFQTGSDCEVILALYQEKGPEFLDDLQGMFAFALYDSEKDAYLIGRDHLGIIPLYMGYDEHGQLYVASEMKALVPVCRTIKEFPAGSYLWSQDGEIRSYYHRDWFDYDAVKDNVTDKNELRQALEDSVKSHLMSDVPYGVLLSGGLDSSIISAITKKYAARRVEDQERSEAWWPQLHSFAVGLPGSPDLKAAQEVANHLGTVHHEIHFTVQEGLDAIRDVIYHIETYDVTTIRASTPMYLMSRKIKAMGIKMVLSGDGSDEVFGGYLYFHKAPNAKELHEETVRKLLALHMYDCARANKAMSAWGVEARVPFLDKKFLDVAMRINPQDKMCGNGKMEKHILRECFEAYLPASVAWRQKEQFSDGVGYSWIDTLKEVAAQQVSDQQLETARFRFPYNTPTSKEAYLYREIFEELFPLPSAAECVPGGPSVACSSAKAIEWDEAFKKMDDPSGRAVGVHQSAYK
B2: ST3GAL2 (Homo sapiens, UniProt Q16842); chain HHSMATLPYLDSGALDGTHRVKLVPGYAGLQRLSKERLSGKSCACRRCMGDAGASDWFDSHFDGNISPVWTRENMDLPPDVQRWWMMLQPQFKSHNTNEVLEKLFQIVPGENPYRFRDPHQCRRCAVVGNSGNLRGSGYGQDVDGHNFIMRMNQAPTVGFEQDVGSRTTHHFMYPESAKNLPANVSFVLVPFKVLDLLWIASALSTGQIRFTYAPVKSFLRVDKEKVQIYNPAFFKYIHDRWTEHHGRYPSTGMLVLFFALHVCDEVNVYGFGADSRGNWHHYWENNRYAGEFRKTGVHDADFEAHIIDMLAKASKIEVYRGN
B3: Mj-MAT W387F/Y85W (Methanocaldococcus jannaschii, UniProt Q58605); chain MRNIIVKKLDVEPIEERPTEIVERKGLGHPDSICDGIAESVSRALCKMYMEKFGTILHHNTDQVELVGGHAYPKFGGGVMVSPIWILLSGRATMEILDKEKNEVIKLPVGTTAVKAAKEYLKKVLRNVDVDKDVIIDCRIGQGSMDLVDVFERQKNEVPLANDTSFGVGYAPLSTTERLVLETERFLNSDELKNEIPAVGEDIKVMGLREGKKITLTIAMAVVDRYVKNIEEYKEVIEKVRKKVEDLAKKIADGYEVEIHINTADDYERESVYLTVTGTSAEMGDDGSVGRGNRVNGLITPFRPMSMEAASGKNPVNHVGKIYNILANLIANDIAKLEGVKECYVRILSQIGKPINEPKALDIEIITEDSYDIKDIEPKAKEIANKFLDNIMEVQKMIVEGKVTTF
B4: SULT1B1 (Homo sapiens, UniProt O43704); chain MLSPKDILRKDLKLVHGYPMTCAFASNWEKIEQFHSRPDDIVIATYPKSGTTWVSEIIDMILNDGDIEKCKRGFITEKVPMLEMTLPGLRTSGIEQLEKNPSPRIVKTHLPTDLLPKSFWENNCKMIYLARNAKDVSVSYYHFDLMNNLQPFPGTWEEYLEKFLTGKVAYGSWFTHVKNWWKKKEEHPILFLYYEDMKENPKEEIKKIIRFLEKNLNDEILDRIIHHTSFEVMKDNPLVNYTHLPTTVMDHSKSPFMRKGTAGDWKNYFTVAQNEKFDAIYETEMSKTALQFRTEI
B5: SULT1A1 I89A (Homo sapiens, UniProt P50225); chain MELIQDTSRPPLEYVKGVPLIKYFAEALGPLQSFQARPDDLLISTYPKSGTTWVSQILDMIYQGGDLEKCHRAPIFMRVPFLEFKAPGAPSGMETLKDTPAPRLLKTHLPLALLPQTLLDQKVKVVYVARNAKDVAVSYYHFYHMAKVHPEPGTWDSFLEKFMVGEVSYGSWYQHVQEWWELSRTHPVLYLFYEDMKENPKREIQKILEFVGRSLPEETVDFVVQHTSFKEMKKNPMTNYTTVPQEFMDHSISPFMRKGMAGDWKTTFTVAQNERFDADYAEKMAGCSLSFRSEL
B6: ADA (Homo sapiens, UniProt P00813); chain MAQTPAFDKPKVELHVHLDGSIKPETILYYGRRRGIALPANTAEGLLNVIGMDKPLTLPDFLAKFDYYMPAIAGCREAIKRIAYEFVEMKAKEGVVYVEVRYSPHLLANSKVEPIPWNQAEGDLTPDEVVALVGQGLQEGERDFGVKARSILCCMRHQPNWSPKVVELCKKYQQQTVVAIDLAGDETIPGSSLLPGHVQAYQEAVKSGIHRTVHAGEVGSAEVVKEAVDILKTERLGHGYHTLEDQALYNRLRQENMHFEICPWSSYLTGAWKPDTEHAVIRLKNDQANYSLNTDDPLIFKSTLDTDYQMTKRDMGFTEEEFKRLNINAAKSSFLPEDEKRELLDLLYKAYGMPPSASAGQNL
B7: GAR synthetase (Cryptococcus neoformans, UniProt J9VYP5); chain MPEITAFPQPKSDLSILLLGAGGREHALAFKLAQSSRVARIVVCPGNGGTALMGGKVSNLALPWGAPPAFRSIVEWAQKENIDLVVPGPEQPLVDGVEGAFKKVGIPVFGPSPAAAMLEGSKSLSKEFMARHNIPTAAFRSFTSTQYEDAVAYIKSKPFTSGRSVIKASGLAAGKGVLIPETDEEAFAALKSVMVDKEFGDAGDEVVVEEYLSGPEISVLAFSDGYTIVPMPAAQDHKRIGEGDTGLNTGGMGAYAPAPIATKEIMERCVKDVLEPTIKGMREDGYPFVGMLFTGFMITADGPRVLEYNVRFGDPETQALMLLLDEQTDLAEVLLACVERRLDSIKLGYKQGYAVSVVLASEGYPGSYPKGLPMTLNPTPEGVEVFHAGTKRSDNVTVTDGGRVLAVCASAPTLRAAVDLAYSGISQISFQGQTFRRDIAYRALSSEPPAEP
B8: MSS116 T307A (Saccharomyces cerevisiae, UniProt P15424); chain LYNDGNRDQRNFGRNQRNNNSNRYRNSRFNSRPRTRSREDDDEVHFDKTTFSKLIHVPKEDNSKEVTLDSLLEEGVLDKEIHKAITRMEFPGLTPVQQKTIKPILSSEDHDVIARAKTGTGKTFAFLIPIFQHLINTKFDSQYMVKAVIVAPTRDLALQIEAEVKKIHDMNYGLKKYACVSLVGGTDFRAAMNKMNKLRPNIVIATPGRLIDVLEKYSNKFFRFVDYKVLDEADRLLEIGFRDDLETISGILNEKNSKSADNIKTLLFSAALDDKVQKLANNIMNKKECLFLDTVDKNEPEAHERIDQSVVISEKFANSIFAAVEHIKKQIKERDSNYKAIIFAPTVKFTSFLCSILKNEFKKDLPILEFHGKITQNKRTSLVKRFKKDESGILVCTDVGARGMDFPNVHEVLQIGVPSELANYIHRIGRTARSGKEGSSVLFICKDELPFVRELEDAKNIVIAKQEKYEPSEEIKSEVLEAVTEEPEDISDIVISLISSYRSCIKEYRFSERRILPEIASTYGVLLNDPQLKIPVSRRFLDKLGLSRSPIGKAMFEIRDYSSRDGNNKSYDYDDDSEISFRGNKNYNNRSQNRDYDDEPFRRSNNNRRSFSRSNDKNNYSSRNSNIY
B9: nahG (Pseudomonas putida, UniProt P23262); chain MKNNKLGLRIGIVGGGISGVALALELCRYSHIQVQLFEAAPAFGEVGAGVSFGPNAVRAIVGLGLGEAYLQVADRTSEPWEDVWFEWRRGSDASYLGATIAPGVGQSSVHRADFIDALVTHLPEGIAQFGKRATQVEQQGGEVQVLFTDGTEYRCDLLIGADGIKSALRSHVLEGQGLAPQVPRFSGTCAYRGMVDSLHLREAYRAHGIDEHLVDVPQMYLGLDGHILTFPVRNGGIINVVAFISDRSEPKPTWPADAPWVREASQREMLDAFAGWGDAARALLECIPAPTLWALHDLAELPGYVHGRVVLIGDAAHAMLPHQGAGAGQGLEDAYFLARLLGDTQADAGNLAELLEAYDDLRRPRACRVQQTSWETGELYELRDPVVGANEQLLGENLATRFDWLWNHDLDTDLAEARARLGWEHGGGGALRQG
B10: enzyme R201K (Arabidopsis thaliana, UniProt O82390); chain MNARALLCSSNIHSLYTSNRPPEKTSSSRSLRNLKPSPKSLRVWIYPRNRSSVFRVLVRSSDKSESSNSYYVEGDKVSGNNDVVSDSPSSIVLPWWEEFPKRWVIVLLCFSAFLLCNMDRVNMSIAILPMSAEYGWNPATVGLIQSSFFWGYLLTQIAGGIWADTVGGKRVLGFGVIWWSIATILTPVAAKLGLPYLLVVKAFMGVGEGVAMPAMNNILSKWVPVQERSRSLALVYSGMYLGSVTGLAFSPFLIHQFGWPSVFYSFGSLGTVWLTLWLTKAESSPLEDPTLLPEERKLIADNCASKEPVKSIPWRLILSKPPVWALISCHFCHNWGTFILLTWMPTYYHQVLKFNLMESGLLSVFPWMTMAISANAGGWIADTLVSRGFSVTNVRKIMQTIGFLGPAFFLTQLKHIDSPTMAVLCMACSQGTDAFSQSGLYSNHQDIAPRYSGVLLGLSNTAGVLAGVLGTAATGHILQHGSWDDVFTISVGLYLVGTVIWNLFSTGEKIID
Sequence of UniProt D2D3B2 (whole entry, looked up): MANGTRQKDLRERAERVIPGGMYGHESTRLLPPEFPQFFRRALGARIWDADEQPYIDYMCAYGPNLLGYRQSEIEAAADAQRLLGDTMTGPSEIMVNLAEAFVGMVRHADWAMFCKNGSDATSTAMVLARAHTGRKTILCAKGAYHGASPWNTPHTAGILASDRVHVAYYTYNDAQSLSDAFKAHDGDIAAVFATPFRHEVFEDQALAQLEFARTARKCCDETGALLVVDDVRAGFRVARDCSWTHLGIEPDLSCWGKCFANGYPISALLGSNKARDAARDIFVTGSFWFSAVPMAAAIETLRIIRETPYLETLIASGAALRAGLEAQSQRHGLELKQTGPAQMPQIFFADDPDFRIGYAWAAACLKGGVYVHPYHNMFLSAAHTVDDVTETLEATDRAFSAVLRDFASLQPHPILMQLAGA
Sequence of UniProt Q9HAW9 (whole entry, looked up): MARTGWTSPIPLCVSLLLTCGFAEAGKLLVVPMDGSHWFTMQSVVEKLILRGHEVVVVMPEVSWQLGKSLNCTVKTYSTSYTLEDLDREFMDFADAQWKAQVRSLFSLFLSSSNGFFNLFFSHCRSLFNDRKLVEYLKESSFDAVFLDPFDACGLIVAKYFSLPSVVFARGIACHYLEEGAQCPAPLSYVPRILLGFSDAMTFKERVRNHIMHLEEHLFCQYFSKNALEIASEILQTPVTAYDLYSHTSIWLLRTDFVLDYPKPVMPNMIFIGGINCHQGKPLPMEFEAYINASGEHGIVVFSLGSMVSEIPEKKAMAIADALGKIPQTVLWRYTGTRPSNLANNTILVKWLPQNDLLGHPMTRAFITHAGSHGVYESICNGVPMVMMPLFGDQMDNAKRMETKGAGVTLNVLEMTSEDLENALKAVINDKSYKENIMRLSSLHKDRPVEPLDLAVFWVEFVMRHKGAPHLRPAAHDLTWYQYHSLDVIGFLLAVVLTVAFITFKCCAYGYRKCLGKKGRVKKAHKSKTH

B1 (asnB E349D) — Km (NC(=O)CC[C@H](N)C(=O)O; pH 8, 37 °C, 100 mM NaCl, glutaminase site, together with: MgCl2; no ATP): 2700 µM
B2 (ST3GAL2) — Km (CC(=O)N[C@H]1[C@H](O[C@H]2[C@@H](O)[C@@H](CO)O[C@@H](O[C@H]3[C@H](O)[C@@H](O)[C@H](Oc4ccc([N+](=O)[O-])cc4)O[C@@H]3CO)[C@@H]2O)O[C@H](CO)[C@@H](O)[C@@H]1O[C@@H]1O[C@H](CO)[C@H](O)[C@H](O)[C@H]1O; pH 6, together with: CMP-Neu5Ac): 1710 µM
enzyme (Sphingopyxis macrogoltabida, UniProt D2D3B2) — Km (O=C(O)CC(=O)C(=O)O; pH 7.4, 25 °C): 4150 µM
protein (Trypanosoma brucei, UniProt Q382C3) — Km (NCCOP(=O)(O)O; pH 7.5, together with: CTP 0.1 mM): 12.1 µM
B3 (Mj-MAT W387F/Y85W) — Km (CSCC[C@H](N)C(=O)O; 55 °C, together with: ATP 2.5 mM, methionine 0.05-1 mM): 570 µM
B4 (SULT1B1) — Km (Nc1ncnc2c1ncn2[C@@H]1O[C@H](COP(=O)(O)OS(=O)(=O)O)[C@@H](OP(=O)(O)O)[C@H]1O; pH 7.4, 37 °C, together with: 1-naphthol): 1.97 µM
B5 (SULT1A1 I89A) — Km (C[C@]12CC[C@@H]3c4ccc(O)cc4CC[C@H]3[C@@H]1CC[C@@H]2O; pH 7.2, 25 °C, together with: PAPS 0.060–1.5 µM): 1.2 µM
B6 (ADA) — Km (Nc1ncnc2c1ncn2[C@@H]1O[C@H](CO)C[C@H]1O; human erythrocytes; pH 5.8, 37 °C): 70.4 µM
B7 (GAR synthetase) — Km (N[C@@H]1O[C@H](COP(=O)(O)O)[C@@H](O)[C@H]1O; pH 8, 37 °C, apparent): 240 µM
UGT1A8 (Homo sapiens, UniProt Q9HAW9) — Km (COc1cc2c(cc1CC=C(C)C)C(=O)C[C@@H](c1ccc(O)cc1)O2; pH 7.4, 37 °C): 6.3 µM
B8 (MSS116 T307A) — Km (Nc1ncnc2c1ncn2[C@@H]1O[C@H](COP(=O)(O)OP(=O)(O)OP(=O)(O)O)[C@@H](O)[C@H]1O; pH 7.5, 37 °C, together with: ATP): 165 µM
B9 (nahG) — Km (Cc1cc2nc3c(=O)[nH]c(=O)nc-3n(C[C@H](O)[C@H](O)[C@H](O)COP(=O)(O)O)c2cc1C; pH 8.5, 25 °C, no AMP, apparent, cofactor varied, together with: NADH 200 µM, salicylate 150 µM): 2.4 µM
B10 (enzyme R201K) — Km (O=P(O)(O)O; pH 6.5, 25 °C, apparent, not purified): 214 µM

Excerpt of the above:
B7 (GAR synthetase) — Km (N[C@@H]1O[C@H](COP(=O)(O)O)[C@@H](O)[C@H]1O; pH 8, 37 °C, apparent): 240 µM
